Published values from different studies.
A part holds a random share of what one study measured. Changes are numbered by the printed parent chain.

Study 1 — target: CCNE1, cyclin fold, Cln2 fusion (human); technique: yeast growth competition, sequencing; sample: yeast; notes: strong parent motif; relative to: not given; direction: higher = stronger binding
Parent: BRCA2 docking peptide (human); PSIKRNLLNEFDR
| Variant | normalised enrichment score |
| --- | --- |
| PSIKRNLLNEGDR [F11G] | 0.8 |
| PSIKRNLLNEFDE [R13E] | 3.17 |
| PSIARNLLNEFDR [K4A] | 0.179 |
| PSIKRNLLNEEDR [F11E] | -0.0786 |
| PSIKRNLLLEFDR [N9L] | 2.59 |
| PSISRNLLNEFDR [K4S] | 0.242 |
| PSIKRNLLNEFDT [R13T] | 2.04 |
| PSFKRNLLNEFDR [I3F] | 4.56 |
| PSIKRNLLNEFDV [R13V] | 1.96 |
| PFIKRNLLNEFDR [S2F] | 0.851 |
| PSIKRNFLNEFDR [L7F] | -0.0788 |

Study 2 — technique: protein-binding microarray; molecule type: double-stranded DNA, one strand shown; sample: in vitro; tested at: not given; direction: higher = stronger binding
Target: TATA-box-binding protein 1 (TBP1, Arabidopsis thaliana, UniProt P28147, residues 1-200, full length assumed)
Notes: k-mer, scored over probes, only values ≥0.25
Target sequence (chain): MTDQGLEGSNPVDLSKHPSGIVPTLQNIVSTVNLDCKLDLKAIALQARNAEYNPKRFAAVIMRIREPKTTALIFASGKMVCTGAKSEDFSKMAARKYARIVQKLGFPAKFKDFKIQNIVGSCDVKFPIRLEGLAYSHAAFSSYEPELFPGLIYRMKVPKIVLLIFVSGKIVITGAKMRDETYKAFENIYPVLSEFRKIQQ
| Strand | E-score |
| --- | --- |
| ATTTATA | 0.479 |
| ACATATA | 0.429 |
| ATTATGC | 0.307 |
| CTTAAGC | 0.305 |
| AAATAGA | 0.257 |
| CGAAATA | 0.261 |
| AAATTAC | 0.306 |
| CTTAAGA | 0.35 |

Study 3 — technique: RNA Bind-n-Seq; molecule type: RNA; sample: in vitro; tested at: 365 nM; relative to: no-protein control; direction: higher = stronger binding
Target: RNA binding protein fox-1 homolog 2, RRM domain, GST-SBP tag (RBFOX2, Homo sapiens, UniProt O43251-10, residues 100-194)
Notes: natural RNA segment, single round, ends assumed
Constant ends, left off below: GGGAGUUCUACAGUCCGACGAUC … UGGAAUUCUCGGGUGCCAA
Residues (chain): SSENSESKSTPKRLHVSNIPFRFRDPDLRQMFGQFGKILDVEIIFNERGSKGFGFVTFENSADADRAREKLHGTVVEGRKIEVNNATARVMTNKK
| Strand | RBNS enrichment (R) |
| --- | --- |
| UGCCUUUUAGUGGAGACCUGCAGGCAAGCCUUUGGCCCACUGAUCACUGCCUUUCCCCCUCCACCGAGGGCUAUUGGCUGACAAAGCCCCUUCCUGGCCUCACAACCACC | 0.289 |
| AUCAAUCUAUAUUUAAUUCAGUUCAGUGGCAUUCAUUAAGGAUGAAUUAAUCACUAUAGGAUUAAGCCUUUAUCCUAUAGUGUCCAGUUUUUCUCUACUUCUGAAAUGAG | 0.378 |
| ACUCCAGGGGUGGUGUCUCGGCCGCCCCUACCAGCUGGCUGAGCCCCCUGGCCUCCUGCGCUCCCUCACUUCCCUCAGUUCCCAAAGCUGCCCAGUCCAUGGGGACAGAA | 0.245 |
| UCCUCCAGCAUAACCCCAGUUGGCUGACGUGAGCCUAUUCCAUCUGAGGCCAUUCUCUCUUUGGUUCCUUUCUAAUCUAUCCACACAUGCCUUUCCCUUCUUUGAUCCCC | 1.67 |
| CUCUUCAAAAAAUUUGCAUGUCUGCUGUGAAUUUUCAUCUAGUUCCCCAAUCGAUGCUCUCAGGGUCAUCUCGGGGAUCACAGGGAUCCUUAAAUCUCCAUUCUGUUUGU | 0.996 |
| CUUACUCCAGCCUGGCAGCCUGGCCGACCCUACCCCAAGCCUCUCAACAGAAGCUGUGCAGCCAGGGCAGGCCCAGGCCAGCCAGUACCUGAGAGUAGGAAGGCCAGGCC | 0.232 |

Single results of other studies
| Substance | target | test | system | setting | how to read | quantity | result |
| --- | --- | --- | --- | --- | --- | --- | --- |
| PhoQ, residues 284 288 289 292 302 303 ALVSVA | PhoP, residues 12 14 15 18 19 LWHVM (Escherichia coli, UniProt P23836) | Sort-seq, refers to: YFP reporter | E. coli | PhoQ-PhoP variant library, together with: 10 µM Mg2+ | relative to: high Mg2+ state, higher = stronger signaling | fold induction | 9.32 |

Repeated from above (study 3):
| Strand | RBNS enrichment (R) |
| --- | --- |
| AUCAAUCUAUAUUUAAUUCAGUUCAGUGGCAUUCAUUAAGGAUGAAUUAAUCACUAUAGGAUUAAGCCUUUAUCCUAUAGUGUCCAGUUUUUCUCUACUUCUGAAAUGAG | 0.378 |
| ACUCCAGGGGUGGUGUCUCGGCCGCCCCUACCAGCUGGCUGAGCCCCCUGGCCUCCUGCGCUCCCUCACUUCCCUCAGUUCCCAAAGCUGCCCAGUCCAUGGGGACAGAA | 0.245 |
| CUUACUCCAGCCUGGCAGCCUGGCCGACCCUACCCCAAGCCUCUCAACAGAAGCUGUGCAGCCAGGGCAGGCCCAGGCCAGCCAGUACCUGAGAGUAGGAAGGCCAGGCC | 0.232 |
